Experimental data of several laboratories.

| Substance | target or system | test | test system | conditions | scale | measurement | value |
| --- | --- | --- | --- | --- | --- | --- | --- |
| polymyxin B | Escherichia coli |  | ATCC 25922 |  |  | MIC | 0.7 µg/mL |
| polymyxin B | Escherichia coli | broth microdilution | ATCC 25922 | various colistin salts |  | MIC | 0.06 µg/mL |
| colistin | Escherichia coli | broth microdilution | clinical isolate RKI-No_515/16 |  |  | MIC | ≤ 0.5 µg/mL |
| KDECVIATEV | human MAGI1-2/6 PDZ construct (MBP fusion) | automated holdup | peptide, crude extract | concentration not given, corrected by standard peak, unit not given | relative to: biotin control resin, higher = stronger binding | binding intensity | -0.0537 |
| benzalkonium chloride | Escherichia coli |  | MC4100 |  |  | MIC | 32 µM |
| polymyxin B | Escherichia coli | broth microdilution | ATCC 25922, Mueller-Hinton broth | 24 h, 37 °C |  | MIC | 1 µg/mL |
| polymyxin B sulfate | Escherichia coli | broth microdilution | ATCC 13883 | various colistin salts |  | MIC | 0.125 µg/mL |
| gentamicin sulfate | Escherichia coli |  | ATCC 25922, susceptible | 18 h, 37 °C, dark |  | MIC | 0.125 µM |
| GSGAGKETSF | human MAGI1-2/6 PDZ construct (MBP fusion) | automated holdup | peptide, purified PDZ protein | concentration not given, unit not given | relative to: biotin control resin, higher = stronger binding | binding intensity | 0.0233 |
| polymyxin B acetate | Escherichia coli | broth microdilution | ATCC 13883 | various colistin salts |  | MIC | 0.25 µg/mL |
| colistin | Escherichia coli | broth microdilution | ATCC 25922 |  |  | MIC | 0.5 µg/mL |
